Experimental data pooled from the literature.
Protocols differ between the studies behind these lines. ± marks the error that the study gave.

Sequences of proteins named here, by UniProt entry; tags and fusion partners are left off. Residues count along the entry.
UniProt P37136, 32-614 limits assumed: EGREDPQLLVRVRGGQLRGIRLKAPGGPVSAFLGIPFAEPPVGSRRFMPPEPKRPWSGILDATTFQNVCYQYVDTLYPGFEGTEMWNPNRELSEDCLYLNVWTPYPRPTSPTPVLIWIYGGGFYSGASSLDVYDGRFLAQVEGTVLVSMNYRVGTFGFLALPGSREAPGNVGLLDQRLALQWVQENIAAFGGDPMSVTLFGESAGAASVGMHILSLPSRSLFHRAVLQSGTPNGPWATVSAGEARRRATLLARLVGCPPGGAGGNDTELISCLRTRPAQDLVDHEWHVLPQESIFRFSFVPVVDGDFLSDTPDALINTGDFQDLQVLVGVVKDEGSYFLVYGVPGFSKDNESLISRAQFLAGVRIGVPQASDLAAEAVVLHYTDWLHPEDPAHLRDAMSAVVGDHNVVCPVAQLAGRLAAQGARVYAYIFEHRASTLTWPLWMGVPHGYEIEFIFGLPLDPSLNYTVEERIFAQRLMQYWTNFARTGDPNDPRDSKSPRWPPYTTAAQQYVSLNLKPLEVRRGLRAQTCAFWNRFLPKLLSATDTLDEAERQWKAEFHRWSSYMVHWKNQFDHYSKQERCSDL
UniProt P0DKX7, 1-373 limits assumed: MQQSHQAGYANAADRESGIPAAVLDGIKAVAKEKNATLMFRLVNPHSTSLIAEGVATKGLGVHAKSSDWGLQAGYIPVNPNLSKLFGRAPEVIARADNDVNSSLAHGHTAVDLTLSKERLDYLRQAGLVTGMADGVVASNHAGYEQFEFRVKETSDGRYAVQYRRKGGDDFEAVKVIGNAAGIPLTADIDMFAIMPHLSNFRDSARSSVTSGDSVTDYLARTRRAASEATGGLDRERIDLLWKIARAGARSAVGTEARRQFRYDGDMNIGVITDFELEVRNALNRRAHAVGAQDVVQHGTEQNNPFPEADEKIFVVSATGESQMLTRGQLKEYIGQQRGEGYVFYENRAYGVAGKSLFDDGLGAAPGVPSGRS
UniProt P60752, whole entry D512G: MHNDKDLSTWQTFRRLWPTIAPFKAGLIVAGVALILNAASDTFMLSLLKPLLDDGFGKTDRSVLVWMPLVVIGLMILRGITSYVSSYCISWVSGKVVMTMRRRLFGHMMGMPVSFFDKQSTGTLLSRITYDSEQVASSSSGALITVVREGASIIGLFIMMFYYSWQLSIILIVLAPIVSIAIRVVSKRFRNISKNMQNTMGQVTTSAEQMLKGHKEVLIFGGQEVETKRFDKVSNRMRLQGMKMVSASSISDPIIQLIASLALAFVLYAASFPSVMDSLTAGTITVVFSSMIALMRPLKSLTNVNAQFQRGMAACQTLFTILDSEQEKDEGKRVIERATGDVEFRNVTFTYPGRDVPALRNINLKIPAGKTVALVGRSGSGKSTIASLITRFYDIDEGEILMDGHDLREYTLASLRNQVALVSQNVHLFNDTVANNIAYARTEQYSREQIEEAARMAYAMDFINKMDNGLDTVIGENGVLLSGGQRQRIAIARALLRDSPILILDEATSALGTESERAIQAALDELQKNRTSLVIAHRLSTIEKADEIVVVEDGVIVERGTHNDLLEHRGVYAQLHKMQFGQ
UniProt P17787, 26-502 limits assumed: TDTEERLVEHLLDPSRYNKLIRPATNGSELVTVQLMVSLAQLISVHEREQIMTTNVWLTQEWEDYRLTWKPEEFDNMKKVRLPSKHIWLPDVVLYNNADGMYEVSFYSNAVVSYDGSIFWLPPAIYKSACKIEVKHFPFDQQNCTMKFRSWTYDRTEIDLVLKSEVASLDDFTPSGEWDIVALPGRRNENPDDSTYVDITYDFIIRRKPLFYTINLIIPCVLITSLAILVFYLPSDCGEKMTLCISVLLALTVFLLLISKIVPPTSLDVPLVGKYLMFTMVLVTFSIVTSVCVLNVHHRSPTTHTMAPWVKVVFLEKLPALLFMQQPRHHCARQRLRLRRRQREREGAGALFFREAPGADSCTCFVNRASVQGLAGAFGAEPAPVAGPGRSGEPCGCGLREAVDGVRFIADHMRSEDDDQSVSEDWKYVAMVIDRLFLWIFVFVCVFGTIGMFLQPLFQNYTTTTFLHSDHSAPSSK
UniProt Q15822, 27-529 limits assumed: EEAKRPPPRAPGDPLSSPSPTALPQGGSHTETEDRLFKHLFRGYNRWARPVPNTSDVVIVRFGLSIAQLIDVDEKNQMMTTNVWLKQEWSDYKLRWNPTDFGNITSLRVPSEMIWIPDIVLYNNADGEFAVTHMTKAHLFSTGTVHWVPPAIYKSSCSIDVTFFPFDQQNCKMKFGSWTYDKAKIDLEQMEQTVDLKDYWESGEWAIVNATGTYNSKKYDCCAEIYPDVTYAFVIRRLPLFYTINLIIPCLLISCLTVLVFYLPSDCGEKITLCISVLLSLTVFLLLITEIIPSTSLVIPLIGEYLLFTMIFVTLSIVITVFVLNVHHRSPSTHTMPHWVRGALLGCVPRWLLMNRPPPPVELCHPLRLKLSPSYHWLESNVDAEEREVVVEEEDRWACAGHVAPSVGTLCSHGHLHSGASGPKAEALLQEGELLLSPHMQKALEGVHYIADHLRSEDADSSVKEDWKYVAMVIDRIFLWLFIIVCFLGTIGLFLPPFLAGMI
UniProt P54292, whole entry: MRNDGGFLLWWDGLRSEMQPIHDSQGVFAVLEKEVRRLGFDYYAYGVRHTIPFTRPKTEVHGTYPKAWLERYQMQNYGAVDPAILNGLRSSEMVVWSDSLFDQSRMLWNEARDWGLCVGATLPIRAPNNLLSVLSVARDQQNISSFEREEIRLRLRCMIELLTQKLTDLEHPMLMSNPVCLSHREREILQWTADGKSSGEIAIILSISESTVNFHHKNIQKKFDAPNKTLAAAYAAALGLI
UniProt H0V073, 1-176: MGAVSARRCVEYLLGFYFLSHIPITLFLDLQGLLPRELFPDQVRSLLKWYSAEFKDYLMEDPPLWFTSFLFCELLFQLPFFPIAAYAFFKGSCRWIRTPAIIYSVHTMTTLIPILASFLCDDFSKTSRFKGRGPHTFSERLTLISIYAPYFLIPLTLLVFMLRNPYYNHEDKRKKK

SMILES | target or system | assay | system | conditions | quantity | result
COP(=O)(OC)Oc1ccc([N+](=O)[O-])cc1Cl | Acetylcholinesterase (Ache, Rattus norvegicus, UniProt P37136) | enzyme activity, inhibitor | rat, postnatal day 70, rat brain homogenate | 15 min, 37 °C | IC50 | 139 nM
CNc1ccccc1C(=O)O[C@H]1[C@@H](O)[C@H](n2ccc(N)nc2=O)O[C@@H]1COP(=O)(O)OP(=O)(O)OP(=O)(O)O | cya, adenylate cyclase domain (Bordetella pertussis, UniProt P0DKX7) | inhibitor | – | – | Ki | 1300 ± 100 nM
Nc1ncnc2c1ncn2[C@@H]1O[C@H](COP(=O)(O)OP(=O)(O)OP(=O)(O)O)[C@@H](Oc2c([N+](=O)[O-])cc([N+](=O)[O-])cc2[N+](=O)[O-])[C@H]1O | msbA (Escherichia coli, UniProt P60752, D512G) | fluorescence titration | – | pH 7, no Mg added, 0.01% DM, 10% glycerol | Kd | 810 ± 150 nM
N#Cc1c(-c2ccc(Cl)cc2Cl)n(-c2nc(-c3ccc(Cl)cc3)c3c(NC(=O)c4ccccc4)nnc-3[nH]2)[nH]c1=O | TK-10 | SRB | – | – | CC50 | > 100000 nM
CNC(=O)[C@H]1[Se][C@@H](n2cnc3c(NCc4cccc5ccccc45)ncnc32)[C@H](O)[C@@H]1O | Adenosine receptor A2a (ADORA2A, Homo sapiens, UniProt P29274) | binding | HEK293 membranes | together with: [3H]CGS21680 10 nM | Ki | ~200 nM
CC[C@H](C)[C@@H]1NC(=O)[C@H](CCC(=O)O)NC(=O)[C@@H]2CCCN2C(=O)[C@H](Cc2c[nH]cn2)NC(=O)[C@H](CCCNC(=N)N)NC(=O)[C@H](C(C)C)NC(=O)[C@H](CC(N)=O)NC(=O)[C@@H]2CSSC[C@H](NC(=O)CN)C(=O)N[C@@H](CSSC[C@@H](C(N)=O)NC1=O)C(=O)N[C@@H](CO)C(=O)N[C@@H](Cc1c[nH]cn1)C(=O)N1CCC[C@H]1C(=O)N[C@@H](C(C)C)C(=O)N2 | Neuronal acetylcholine receptor; alpha2/beta2 (Homo sapiens, UniProt P17787+Q15822) | ion current, antagonist, two-electrode voltage clamp | Xenopus oocytes | human, together with: ACh 100 µM | IC50 | > 10000 nM
CCOC(=O)c1c(-c2ccc(Cl)cc2Cl)n(-c2nc(-c3ccc(Cl)cc3)c3c(NC(=O)c4ccccc4)nnc-3[nH]2)[nH]c1=O | K562 | SRB | – | – | CC50 | > 100000 nM
O=C(N[C@H]1CCOC1=O)C1CCCC1 | HTH-type quorum-sensing regulator RhlR (rhlR, Pseudomonas aeruginosa, UniProt P54292) | reporter gene, agonist, rhlI-gfp reporter | PAO-JP2 | – | EC50 | 1220 nM
Cc1cn([C@@H]2CC[C@H](OC(C(=O)O)P(=O)(O)O)C2)c(=O)[nH]c1=O (relative stereo) | DNA polymerase beta (POLB, Homo sapiens, UniProt P06746) | enzyme activity, inhibitor | – | together with: activated calf thymus DNA | IC50 | > 500000 nM
COc1ccc(S(=O)(=O)N(CC(C)C)C[C@@H](O)[C@H](Cc2ccccc2)NC(=O)O[C@@H]2C[C@@H]3CO[C@@H]4O[C@H]2C[C@H]34)cc1 | Gag-Pol polyprotein, protease (gag-pol, Human immunodeficiency virus type 1 group M subtype B, UniProt P04585) | enzyme activity, inhibitor | – | – | Ki | 0.008 nM
NCCCCCC(=O)Nc1nnc(S(N)(=O)=O)s1 | Enterococcus faecium gamma-carbonic anhydrase | CO2 hydration, inhibitor, stopped-flow kinetics | – | – | Ki | 60.4 nM
Cc1nn(-c2ccc(Cl)cc2)c2c1C(c1cccc(Cl)c1Cl)C(C#N)=C(N)O2 (stereo not shown) | Vero E6 | MTT | – | 25 µM | viability | 55.6%
COc1cc2c(cc1OC)N(CCCCNC(=O)c1cc(Br)cc(OC)c1OC)CCCC2 | Sigma-2 receptor (Cavia porcellus, UniProt H0V073) | binding | brain membranes | (+)-pentazocine masking, together with: [3H]DTG 500 nM | Ki | 8960 ± 335 nM

Some of these lines once more:
SMILES | target or system | assay | system | conditions | quantity | result
COP(=O)(OC)Oc1ccc([N+](=O)[O-])cc1Cl | Acetylcholinesterase (Ache, Rattus norvegicus, UniProt P37136) | enzyme activity, inhibitor | rat, postnatal day 70, rat brain homogenate | 15 min, 37 °C | IC50 | 139 nM
COc1cc2c(cc1OC)N(CCCCNC(=O)c1cc(Br)cc(OC)c1OC)CCCC2 | Sigma-2 receptor (Cavia porcellus, UniProt H0V073) | binding | brain membranes | (+)-pentazocine masking, together with: [3H]DTG 500 nM | Ki | 8960 ± 335 nM
